Measurements gathered from unrelated publications.
Each line is one published result; not all experiments were run side by side. Numbers after ± are the reported error.

SMILES	test	system	conditions	Cmax
CC(C)(Sc1ccncc1-c1ccc(C#N)c2ccccc12)C(=O)O	–	human, male, Japanese, plasma	oral, 2.5 mg, day 6, fed, single dose	5.66 ng/mL
CCOc1ccc(Cc2cc([C@@H]3S[C@H](CO)[C@@H](O)[C@H](O)[C@H]3O)c(OC)cc2C)cc1	–	human, plasma	oral, 10 mg/day, day 7, multiple dose before breakfast	475 ± 111 ng/mL
CCCS(=O)(=O)N[C@H]1C[C@@H](N(C)c2ncnc3[nH]ccc23)C1	–	humans, moderate hepatic impairment	oral, 200 mg single	1430 ng/mL
O=C(NC[C@H]1CN(c2ccc(N3CCOCC3=O)cc2)C(=O)O1)c1ccc(Cl)s1	–	human	20 mg once daily, day 3	408 ± 97.8 ng/mL
CN(C)Cc1c(C(=O)NCCOc2ccc(C(=O)NO)cc2)oc2ccccc12	–	human, plasma	oral, 60 mg, single dose on day -3	89.8 ± 22.3 ng/mL
CCCCC1(CCCC)CN(c2ccccc2)c2cc(SC)c(OCC(=O)N[C@@H](C(=O)NCC(=O)O)c3ccccc3)cc2S(=O)(=O)C1	LC-MS/MS	human, plasma	oral, 15 mg, single dose, fasted	1.81 ng/mL
O=C(c1cc(Cc2n[nH]c(=O)c3ccccc23)ccc1F)N1CCN(C(=O)C2CC2)CC1	–	human patients, plasma	oral, 400 mg twice daily, day 2, with: pegylated liposomal doxorubicin	6600 ± 2000 ng/mL
CS(=O)(=O)n1cc2c(n1)CN([C@H]1CO[C@H](c3cc(F)ccc3F)[C@@H](N)C1)C2	–	healthy male human, plasma	oral, 25 mg once weekly, day 1, fasted, geometric mean	610 nM
O=S(=O)(c1cccc2cnccc12)N1CCCNCC1	–	human, plasma	intravenous, 30 mg	101 ng/mL
CCCNS(=O)(=O)Nc1ncnc(OCCOc2ncc(Br)cn2)c1-c1ccc(Br)cc1	–	human	oral, 10 mg, free combination, geometric mean, with: EU-sourced tadalafil 40 mg	165 ng/mL
CCOc1cc([C@@H](CS(C)(=O)=O)N2C(=O)c3cccc(NC(C)=O)c3C2=O)ccc1O[C@@H]1O[C@H](C(=O)O)[C@@H](O)[C@H](O)[C@H]1O	–	healthy human controls, plasma	oral, 30 mg apremilast, matched to severe impairment	198 ng/mL
CC1(C)CCC(CN2CCN(c3ccc(C(=O)NS(=O)(=O)c4ccc(NCC5CCOCC5)c([N+](=O)[O-])c4)c(Oc4cnc5[nH]ccc5c4)c3)CC2)=C(c2ccc(Cl)cc2)C1	–	human, plasma	oral, 600 mg, steady state cohort B1.2, with: idasanutlin 150 mg	1470 ng/mL
O=C(c1ccc(OCCN2CCCCC2)cc1)c1c(-c2ccc(O[C@@H]3O[C@H](C(=O)O)[C@@H](O)[C@H](O)[C@H]3O)cc2)sc2cc(O)ccc12	–	human, plasma	oral, 60 mg raloxifene, chronic green tea	64.1 nM
Cc1nc(-c2ccc(OCC(C)C)c(C#N)c2)sc1C(=O)O	–	human, plasma	oral, 80 mg, with: verinurad 5 mg	1080 ng/mL
COc1ccnc(C[S+]([O-])c2nc3ccc(OC(F)F)cc3[nH]2)c1OC (stereo not shown)	–	human, CYP2C19 ultrarapid metabolizers, plasma	oral, 40 mg/day, day 5	4140 ng/mL
CS(=O)(=O)CCNCc1ccc(-c2ccc3ncnc(Nc4ccc(OCc5cccc(F)c5)c(Cl)c4)c3c2)o1	–	human, plasma	oral, 1250 mg	1890 ng/mL
CC(C)(/C=C(\C#N)C(=O)N1CCC[C@@H](n2nc(-c3ccc(Oc4ccccc4)cc3F)c3c(N)ncnc32)C1)N1CCN(C2COC2)CC1	–	human	400 mg single dose, 2 h	101 ng/mL
Cc1ccsc1C(=O)Nc1cc(CN2CCN(C(=O)CO)CC2)ccc1/C=C/c1n[nH]c2ccccc12	–	human patients, plasma	oral, 50 mg/day, day 28	2970 ± 373 ng/mL
CN(Cc1cnc2nc(N)nc(N)c2n1)c1ccc(C(=O)N[C@@H](CCC(=O)O)C(=O)O)cc1	–	human, both sexes, plasma	oral, 15 mg, day 1, alone, arithmetic mean	423 ng/mL

Excerpt of the above:
SMILES	test	system	conditions	Cmax
CN(Cc1cnc2nc(N)nc(N)c2n1)c1ccc(C(=O)N[C@@H](CCC(=O)O)C(=O)O)cc1	–	human, both sexes, plasma	oral, 15 mg, day 1, alone, arithmetic mean	423 ng/mL
